{"data": "Measurements of several laboratories", "cell line": "Caco-2 monolayer", "note": "± gives the spread as reported."}
{"assay": "transwell permeability", "conditions": "100 µg/mL, apical to basolateral, HBSS, DMSO 1%, together with: verapamil 0.1 mg/mL", "scale": "reference: verapamil alone", "quantity": "Papp increase", "value": "23.7%", "SMILES": "O=c1c(O[C@@H]2O[C@H](CO)[C@H](O)[C@H](O)[C@H]2O)c(-c2ccc(O)c(O)c2)oc2cc(O)cc(O)c12"}
{"system": "HBSS", "conditions": "180 min, apical to basolateral", "quantity": "Papp", "value": "0.043 ± 0.003 ×10⁻⁶ cm/s", "SMILES": "CC(=O)N[C@H]1[C@H]([C@H](O)[C@H](O)CO)OC(C(=O)O)=C[C@@H]1N=C(N)N"}
{"quantity": "Papp (B-A)", "value": "61.2 ×10⁻⁶ cm/s", "SMILES": "Cc1nn(C2CC2)c(=O)c2nn(C)c(Cc3ccc(C(F)(F)F)c(C#N)c3)c12"}
{"conditions": "together with: N-benzyl-indomethacin 145 µM", "scale": "reference: Papp B-A over Papp A-B", "quantity": "efflux ratio", "value": 0.93, "SMILES": "O=C(CS)NCCCCCC(=O)Nc1cccc2cccnc12"}
{"assay": "transwell permeability", "conditions": "100 µg/mL, apical to basolateral, HBSS, DMSO 1%, together with: SDS 10 mg/mL", "scale": "reference: SDS alone", "quantity": "Papp increase", "value": "8.86%", "SMILES": "O=c1cc(-c2ccc(O)cc2)oc2c([C@@H]3O[C@H](CO)[C@@H](O)[C@H](O)[C@H]3O)c(O)cc(O)c12"}
{"quantity": "Papp (A-B)", "value": "64.4 ×10⁻⁶ cm/s", "SMILES": "Cn1nc2c(=O)n(C3CC3)cnc2c1[C@](O)(c1cnc(C(F)(F)F)c(Cl)c1)C(F)(F)F"}
{"assay": "transwell permeability", "conditions": "100 µg/mL, apical to basolateral, HBSS, DMSO 1%, together with: digoxin 5 ng/mL", "scale": "reference: digoxin alone", "quantity": "Papp increase", "value": "10.8%", "SMILES": "C[C@@H]1O[C@@H](OC[C@H]2O[C@@H](Oc3c(-c4ccc(O)c(O)c4)oc4cc(O)cc(O)c4c3=O)[C@H](O)[C@@H](O)[C@@H]2O)[C@H](O)[C@H](O)[C@H]1O"}
{"conditions": "200 µg/mL, 120 min, pH 7.4, without luteolin", "quantity": "Papp", "value": "1 to 10 ×10⁻⁶ cm/s", "SMILES": "CO/N=C(\\C(=O)N[C@@H]1C(=O)N2C(C(=O)O)=C(CSC(=O)c3ccco3)CS[C@H]12)c1csc(N)n1"}
{"quantity": "Papp (B-A)", "value": "75.1 ×10⁻⁶ cm/s", "SMILES": "Cn1nc2c(=O)n(C3CC3)ncc2c1[C@](O)(c1cnc(C(F)(F)F)c(Cl)c1)C(F)(F)F"}
{"quantity": "Papp", "value": "62.4 ×10⁻⁶ cm/s", "SMILES": "CC(C)NCC(O)COc1cccc2ccccc12 (stereo not shown)"}
{"note": "For quick reference, copied from above:"}
{"assay": "transwell permeability", "conditions": "100 µg/mL, apical to basolateral, HBSS, DMSO 1%, together with: verapamil 0.1 mg/mL", "scale": "reference: verapamil alone", "quantity": "Papp increase", "value": "23.7%", "SMILES": "O=c1c(O[C@@H]2O[C@H](CO)[C@H](O)[C@H](O)[C@H]2O)c(-c2ccc(O)c(O)c2)oc2cc(O)cc(O)c12"}
{"system": "HBSS", "conditions": "180 min, apical to basolateral", "quantity": "Papp", "value": "0.043 ± 0.003 ×10⁻⁶ cm/s", "SMILES": "CC(=O)N[C@H]1[C@H]([C@H](O)[C@H](O)CO)OC(C(=O)O)=C[C@@H]1N=C(N)N"}
